Measurements pooled from the literature.
Parts stem from different laboratories: compare values within a part only. Substitutions count along the parent as printed.

Sample 1
Target: Fragile X messenger ribonucleoprotein 1, C-terminal low-complexity region (Fmr1, Mus musculus, UniProt P35922)
Technique: RNA Bind-n-Seq
Form: RNA
Matrix: in vitro
Tested at: 200 nM
Setting: whole 134-nt RNA, ends assumed
Added: 150 mM LiCl
Reference: input library
Direction: higher = stronger binding
Library: 7-deaza-guanosine replaces G
The log2 enrichment of `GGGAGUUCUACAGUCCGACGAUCCUCAAGUCCUGUGCUACACAUCGUAUGUACCGAAUCGGGGCGGGGCGGGGCGGAAAGUAUUAUGUUACGCCGUUCGGAUCUGCACUUCCAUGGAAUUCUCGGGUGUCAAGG` is reported as -1.04.
The log2 enrichment of `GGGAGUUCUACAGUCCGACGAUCCUCAAGUCCUGUGCUACACAUCGUAUGUACCGAAUCGGAAGGGGAAGGGAAGGGAAAGUAUUAUGUUACGCCGUUCGGAUCUGCACUUCCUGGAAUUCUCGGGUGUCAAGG` is reported as -0.0521.
`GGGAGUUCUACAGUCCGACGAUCCAAGUCCUGUGCUACACAUCGUAUGUACCGAAUCGGGAGGGAAAGGGAAAAAGGGAAAGUAUUAUGUUACGCCGUUCGGAUCUGCACUUCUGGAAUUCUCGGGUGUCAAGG` has a log2 enrichment of 0.00984.
The log2 enrichment of `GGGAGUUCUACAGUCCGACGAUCUGGCCCUGGUGGCAUGCGGGGAGGAAGAGGUGGCCUCAUGGAUCGUGGUGGUCCCGGUGGAGUGUUCAGAGGUGGCCGUGGUGGAGACAGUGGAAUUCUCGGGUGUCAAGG` is reported as -0.0963.
For `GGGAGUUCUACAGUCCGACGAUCCAAGUCCUGUGCUACACAUCGUAUGUACCGAAUCGGAAAAAGGAAAAAAAGGUGGAAAGUAUUAUGUUACGCCGUUCGGAUCUGCACUUCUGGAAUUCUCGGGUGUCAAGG`, the log2 enrichment was -1.43.
With `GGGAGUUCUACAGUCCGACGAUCCUCAAGUCCUGUGCUACACAUCGUAUGUACCGAAUCGGUGGGGUGGGGUGGGGAAAGUAUUAUGUUACGCCGUUCGGAUCUGCACUUCCAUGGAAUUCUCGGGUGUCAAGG` the log2 enrichment was -0.178.
With `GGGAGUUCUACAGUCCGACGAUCCUGUGCUACACAUCGUAUGUACCGAAUCGGGUUUUUUUGGUUUUUUUGGGGUUUUUUUGGGGAAAGUAUUAUGUUACGCCGUUCGGAUCUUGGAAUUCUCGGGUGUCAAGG` the log2 enrichment was 1.05.
`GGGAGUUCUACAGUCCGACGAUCACCAUGCAGGUGGGCCUCUUUGGGAAGUGGGGCAAGGGGGGGAUAGGGAGGGGGGUAACACUUUGGGAACAGGUGGUCCCAGGUCGUUUCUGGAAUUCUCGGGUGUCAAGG` gave a log2 enrichment of 1.31.
For `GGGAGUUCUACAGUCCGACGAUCUCAAGUCCUGUGCUACACAUCGUAUGUACCGAAUCGGUGGUUUUUGGUUUUUGGAAAGUAUUAUGUUACGCCGUUCGGAUCUGCACUUCCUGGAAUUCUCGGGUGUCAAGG`, the log2 enrichment was -0.821.
With `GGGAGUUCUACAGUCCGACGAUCUUCUGCACCUCUGCUACCUAAAGAAGACCCAAUCUUCACAUAUUUAUCUAAACGGUUAGGAAGGAGUAUAGAUGACAUAGGUCACCUCAUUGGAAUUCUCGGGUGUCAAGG` the log2 enrichment was 0.514.
For `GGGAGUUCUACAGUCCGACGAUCCACAGACAACACGCACCCACACAGACACAGAGGGAAGGGGUUGGGAUGGGGACUGGGUGCACAGCAGGGCGGGGUAGGACCCCAGCCCCUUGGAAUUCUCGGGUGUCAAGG`, the log2 enrichment was 0.183.

Sample 2
Target: CCNA1, cyclin fold, Cln2 fusion (human)
Technique: yeast growth competition, sequencing
Matrix: yeast
Setting: weak parent motif
Reference: not given
Direction: higher = stronger binding
Starting sequence: RBL1 docking peptide (human); GSAKRRLFGEDPP; partner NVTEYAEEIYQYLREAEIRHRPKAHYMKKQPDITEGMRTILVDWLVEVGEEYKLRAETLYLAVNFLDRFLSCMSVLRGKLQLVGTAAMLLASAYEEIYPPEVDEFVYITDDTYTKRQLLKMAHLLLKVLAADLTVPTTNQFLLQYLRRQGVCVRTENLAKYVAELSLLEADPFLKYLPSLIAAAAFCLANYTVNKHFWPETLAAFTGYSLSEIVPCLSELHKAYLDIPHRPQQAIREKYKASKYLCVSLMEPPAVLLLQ
`GSAKRRLFGTDPP [E10T]`: “normalised enrichment score” 0.326.
For `GSAKRRLFGEDPD [P13D]`, “normalised enrichment score” read 0.46.
`GTAKRRLFGEDPP [S2T]`: “normalised enrichment score” 0.747.
Under “normalised enrichment score”, `GSAKRRLFGEDGP [P12G]` is recorded as 0.376.
`GSGKRRLFGEDPP [A3G]` — result for “normalised enrichment score”: -0.0555.
Under “normalised enrichment score”, `GSAKRRLFVEDPP [G9V]` is recorded as 0.979.
`GSAKRRLFGEIPP [D11I]` — result for “normalised enrichment score”: 0.639.
`GSAKRRLFGEEPP [D11E]` — result for “normalised enrichment score”: 0.652.
For `GSAKRRLFQEDPP [G9Q]`, “normalised enrichment score” read 0.765.
`GSAKRRLFGIDPP [E10I]`: “normalised enrichment score” 0.424.
`GSAKCRLFGEDPP [R5C]` — result for “normalised enrichment score”: 0.00599.
`GSAKRRQFGEDPP [L7Q]` — result for “normalised enrichment score”: 0.62.
`GSANRRLFGEDPP [K4N]`: “normalised enrichment score” 0.216.
For `ASAKRRLFGEDPP [G1A]`, “normalised enrichment score” read 0.384.
`GSAKRRLFGEDPI [P13I]` — result for “normalised enrichment score”: 0.698.
`GSMKRRLFGEDPP [A3M]` — result for “normalised enrichment score”: 0.143.
Under “normalised enrichment score”, `GSAKRRLHGEDPP [F8H]` is recorded as 0.335.

Sample 3
Target: Sal-like protein 4, full length isoform B (SALL4, Homo sapiens, UniProt Q9UJQ4-2, residues 1-616)
Technique: universal PBM
Form: double-stranded DNA, one strand shown
Matrix: in vitro
Tested at: not given
Setting: 8-mer, flanks averaged, mean of replicates
Direction: higher = stronger binding
Construct (chain): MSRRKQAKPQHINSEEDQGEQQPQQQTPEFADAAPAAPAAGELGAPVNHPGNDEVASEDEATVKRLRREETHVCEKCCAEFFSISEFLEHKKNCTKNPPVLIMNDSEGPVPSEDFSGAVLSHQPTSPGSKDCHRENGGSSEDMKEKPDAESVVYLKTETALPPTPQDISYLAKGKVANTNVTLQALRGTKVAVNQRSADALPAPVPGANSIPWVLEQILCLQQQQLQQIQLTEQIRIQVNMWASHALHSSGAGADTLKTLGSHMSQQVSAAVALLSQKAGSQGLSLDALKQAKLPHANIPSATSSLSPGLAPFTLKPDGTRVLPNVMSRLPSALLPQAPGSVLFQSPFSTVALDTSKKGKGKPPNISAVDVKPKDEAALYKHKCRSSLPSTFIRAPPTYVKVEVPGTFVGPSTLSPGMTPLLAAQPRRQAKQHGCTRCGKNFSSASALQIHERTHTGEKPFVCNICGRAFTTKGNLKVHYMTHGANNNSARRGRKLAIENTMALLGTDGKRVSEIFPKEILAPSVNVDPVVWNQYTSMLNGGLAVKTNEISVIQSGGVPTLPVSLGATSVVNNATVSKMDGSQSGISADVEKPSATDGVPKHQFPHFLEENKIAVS
With `AGATTGAA` the E-score was 0.236.
`TCGATGAA` gave an E-score of 0.105.
`CTAAACTA` gave an E-score of 0.0384.
For `CTGATAAA`, the E-score was 0.209.
`CCGAAGTA` gave an E-score of -0.038.
`AAAGTGGC` gave an E-score of -0.0757.
The E-score of `ATGATGCA` is reported as 0.232.
`GTTCATAA` has an E-score of 0.35.
`CTGAATCA` has an E-score of 0.0474.
The E-score of `AAGCTCGT` is reported as -0.144.
The E-score of `CCAACGCC` is reported as -0.138.
The E-score of `ACAATTCG` is reported as 0.0382.
`AACGCAAT` has an E-score of 0.203.
`TGCTTCAA` has an E-score of 0.0598.
The E-score of `GACGCATA` is reported as 0.0666.
`ATTTACAG` gave an E-score of 0.216.
`AGTCCACT` has an E-score of -0.0808.
For `CAGTCTAA`, the E-score was 0.143.
For `CCGCAAAA`, the E-score was -0.00451.
`AGCACGTC` gave an E-score of -0.119.
`TCTAGGCA` gave an E-score of -0.0494.
The E-score of `CATGGAAG` is reported as 0.15.

Sample 4
Target: CREB3, bZIP domain (human)
Technique: DHFR protein complementation
Matrix: yeast
Setting: single substitutions, most at no-binding floor
Reference: wild-type JUN-FOS pair
Direction: higher = stronger binding
Starting sequence: JUN, bZIP domain (human); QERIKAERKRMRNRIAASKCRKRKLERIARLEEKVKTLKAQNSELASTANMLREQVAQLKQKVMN; partner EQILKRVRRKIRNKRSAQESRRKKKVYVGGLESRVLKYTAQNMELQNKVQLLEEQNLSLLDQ
The binding fitness of `A29E` is reported as -1.45 natural log.
The binding fitness of `L59W` is reported as -1.37 natural log.
The binding fitness of `T37C` is reported as -1.45 natural log.
For `A29R`, the binding fitness was -1.35 natural log.
For `Q41L`, the binding fitness was -1.31 natural log.
The binding fitness of `Q55R` is reported as -1.48 natural log.
`L31W` gave a binding fitness of -1.54 natural log.
`V56C` gave a binding fitness of -1.5 natural log.
For `T48C`, the binding fitness was -1.37 natural log.
For `E44W`, the binding fitness was -1.41 natural log.
`R53I` gave a binding fitness of -1.33 natural log.
The binding fitness of `L38F` is reported as -1.41 natural log.
`R30Q` gave a binding fitness of -1.46 natural log.
`A40H` has a binding fitness of -1.57 natural log.
The binding fitness of `Q41A` is reported as -1.35 natural log.
`R53V` has a binding fitness of -1.52 natural log.
`R53L` gave a binding fitness of -1.58 natural log.
For `R53P`, the binding fitness was -1.51 natural log.

Sample 5
Target: Prothrombin, mature alpha-thrombin (F2, Homo sapiens, UniProt P00734)
Technique: aptamer microarray, sandwich
Form: DNA with 2'F-ANA
Matrix: in vitro
Tested at: 200 nM
Setting: whole 15-mer aptamer, many near background
Added: Cy3 exosite-II aptamer, 400 nM
Direction: higher = stronger binding
Sequence: GGTTGGTGTGGTTGG
`2'F-ANA at 1 2 9 11 13` — result for “mean fluorescence intensity”: 111 a.u.
For `2'F-ANA at 5 7 9 10 11 12 14 15`, “mean fluorescence intensity” read 47.5 a.u.
`2'F-ANA at 2 4 5 6 8 9 10 13 14 15` — result for “mean fluorescence intensity”: 50.7 a.u.
`2'F-ANA at 4 5 6 7 8 11` — result for “mean fluorescence intensity”: 63.9 a.u.
For `2'F-ANA at 1 2 8 9 10 11 12 13 15`, “mean fluorescence intensity” read 79.8 a.u.
`2'F-ANA at 5 9 11 12 14` — result for “mean fluorescence intensity”: 63.3 a.u.
`2'F-ANA at 3 4 6 10 14 15`: “mean fluorescence intensity” 176 a.u.
`2'F-ANA at 4 6 7 8 13` — result for “mean fluorescence intensity”: 230 a.u.
`2'F-ANA at 1 2 3 4 6 8 13 14 15` — result for “mean fluorescence intensity”: 71.9 a.u.
For `2'F-ANA at 1 2 4 5 8 9 14`, “mean fluorescence intensity” read 43.3 a.u.
`2'F-ANA at 2 4 5 6 8 9 12`: “mean fluorescence intensity” 179 a.u.
Under “mean fluorescence intensity”, `2'F-ANA at 4 11` is recorded as 287 a.u.
`2'F-ANA at 1 3 5 13 14 15`: “mean fluorescence intensity” 45 a.u.
Under “mean fluorescence intensity”, `2'F-ANA at 2 4 5 6 11 14` is recorded as 57.4 a.u.
For `2'F-ANA at 1 3 4 5 7 8 12`, “mean fluorescence intensity” read 149 a.u.
`2'F-ANA at 1 3 10 11 14 15`: “mean fluorescence intensity” 123 a.u.
`2'F-ANA at 2 3 5 6 7 9 10 11 12 13`: “mean fluorescence intensity” 54 a.u.
`2'F-ANA at 1 3 4 7 11 12 13 14` — result for “mean fluorescence intensity”: 88.3 a.u.
`2'F-ANA at 3 5 6 7 8 10 14`: “mean fluorescence intensity” 48.6 a.u.
`2'F-ANA at 9 10 13` — result for “mean fluorescence intensity”: 170 a.u.
`2'F-ANA at 2 5 7 12 14 15`: “mean fluorescence intensity” 49.8 a.u.
Under “mean fluorescence intensity”, `2'F-ANA at 1 9 12 14 15` is recorded as 71.5 a.u.
For `2'F-ANA at 3 5 6 8 9 13 15`, “mean fluorescence intensity” read 82.1 a.u.
Under “mean fluorescence intensity”, `2'F-ANA at 1 2 5 6 7 8 12 14` is recorded as 77.2 a.u.

Repeated from above (sample 4):
The binding fitness of `A29E` is reported as -1.45 natural log.
The binding fitness of `L59W` is reported as -1.37 natural log.
The binding fitness of `T37C` is reported as -1.45 natural log.
For `A29R`, the binding fitness was -1.35 natural log.
For `Q41L`, the binding fitness was -1.31 natural log.
The binding fitness of `Q55R` is reported as -1.48 natural log.
`L31W` gave a binding fitness of -1.54 natural log.
`V56C` gave a binding fitness of -1.5 natural log.
For `T48C`, the binding fitness was -1.37 natural log.
For `E44W`, the binding fitness was -1.41 natural log.
`R53I` gave a binding fitness of -1.33 natural log.
The binding fitness of `L38F` is reported as -1.41 natural log.
`R30Q` gave a binding fitness of -1.46 natural log.
